# Published values from different studies.
# Parts stem from different laboratories: compare values within a part only. Changes are numbered by the printed parent chain.

# Series 1 — technique: DHFR PCA, deep sequencing; medium: yeast; added: (+)-ABA 4.8 µM; relative to: wild-type fitted maximum; reading: higher = stronger binding
# Target: ABI1, truncated, D143A, DHFR fusion (Arabidopsis thaliana)
# Notes: methotrexate growth selection, single substitutions
# Starting sequence: PYL1, truncated, DHFR fusion (Arabidopsis thaliana); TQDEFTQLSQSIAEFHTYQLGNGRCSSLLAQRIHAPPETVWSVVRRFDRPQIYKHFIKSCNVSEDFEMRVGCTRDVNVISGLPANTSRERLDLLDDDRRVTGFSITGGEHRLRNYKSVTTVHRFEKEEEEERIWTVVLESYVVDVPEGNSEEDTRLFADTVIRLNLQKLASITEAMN
Substitution,relative binding score [%]
T1K,70.4
D65P,81.4
F56M,41.4
V43D,-2.92
D65W,22.7
L29W,1.6
V118Y,12
V121M,-4.05
L166D,-16.7
D75M,79.9
S27M,-0.529
E174T,38.4

# Series 2 — technique: protein binding microarray; form: double-stranded DNA, one strand shown; medium: in vitro; concentration: not given; relative to: not given; reading: higher = stronger binding
# Target: Histone acetyltransferase KAT6A, both winged helices, GST fusion (KAT6A, Homo sapiens, UniProt Q92794, residues 1-181)
# Notes: 8-mer, flanks averaged, mean of 2 arrays, mostly near background
# Target sequence (chain): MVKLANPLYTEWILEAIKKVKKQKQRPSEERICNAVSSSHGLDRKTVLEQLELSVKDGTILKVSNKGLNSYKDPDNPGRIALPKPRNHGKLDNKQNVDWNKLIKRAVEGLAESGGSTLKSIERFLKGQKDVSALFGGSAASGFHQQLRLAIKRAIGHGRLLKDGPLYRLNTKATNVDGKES
Strand,E-score
CCCACGGC,0.229
AGCTTCCC,-0.0054
CTGGCCAG,-0.163
CGGGTTAC,0.283
CCCCCAGC,-0.134
AAGATCTG,-0.0586
CCTGCTGA,-0.15
AAAACCAT,-0.0577
CAGACACC,-0.0291
AATGGCTA,-0.228
ATAATTGA,-0.00046
ACTTTAAC,-0.223

# Series 3 — target: CCND1, cyclin fold, Cln2 fusion (human); technique: yeast growth competition, sequencing; medium: yeast; notes: weak parent motif; relative to: not given; reading: higher = stronger binding
# Starting sequence: SLBP docking peptide (human); ARYKRKLLINDFG; partner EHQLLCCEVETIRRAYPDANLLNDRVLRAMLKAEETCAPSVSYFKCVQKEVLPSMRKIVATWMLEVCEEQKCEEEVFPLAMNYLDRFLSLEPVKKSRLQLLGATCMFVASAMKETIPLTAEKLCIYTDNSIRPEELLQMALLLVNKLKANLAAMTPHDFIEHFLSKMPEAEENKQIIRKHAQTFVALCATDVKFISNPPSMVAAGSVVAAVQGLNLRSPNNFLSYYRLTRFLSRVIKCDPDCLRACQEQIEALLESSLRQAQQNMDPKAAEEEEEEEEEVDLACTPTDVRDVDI
Substitution,normalised enrichment score
R5H,0.125
D11R,0.168
K6R,-0.392
R2S,-0.402
N10C,0.0379
I9Q,-0.548
A1L,-0.332
L7P,0.0807
G13C,0.165
Y3L,0.711

# Other studies, line by line
Substance,target,assay,test system,conditions,how to read,quantity,value
"PhoQ, residues 284 288 289 292 302 303 SMYGEC","PhoP, residues 12 14 15 18 19 SEGLL (Escherichia coli, UniProt P23836)","Sort-seq, refers to: YFP reporter",E. coli,"PhoQ-PhoP variant library, added: 10 µM Mg2+","relative to: high Mg2+ state, higher = stronger signaling",fold induction,15.5

# Repeated from above (series 2):
Strand,E-score
CCCACGGC,0.229
AGCTTCCC,-0.0054
CTGGCCAG,-0.163
CGGGTTAC,0.283
CCCCCAGC,-0.134
AAGATCTG,-0.0586
